Published values of several laboratories.
Each numbered part is a random draw from the data of one study; scales do not carry over between parts.
Sequence of UniProt Q15418 (whole entry, looked up): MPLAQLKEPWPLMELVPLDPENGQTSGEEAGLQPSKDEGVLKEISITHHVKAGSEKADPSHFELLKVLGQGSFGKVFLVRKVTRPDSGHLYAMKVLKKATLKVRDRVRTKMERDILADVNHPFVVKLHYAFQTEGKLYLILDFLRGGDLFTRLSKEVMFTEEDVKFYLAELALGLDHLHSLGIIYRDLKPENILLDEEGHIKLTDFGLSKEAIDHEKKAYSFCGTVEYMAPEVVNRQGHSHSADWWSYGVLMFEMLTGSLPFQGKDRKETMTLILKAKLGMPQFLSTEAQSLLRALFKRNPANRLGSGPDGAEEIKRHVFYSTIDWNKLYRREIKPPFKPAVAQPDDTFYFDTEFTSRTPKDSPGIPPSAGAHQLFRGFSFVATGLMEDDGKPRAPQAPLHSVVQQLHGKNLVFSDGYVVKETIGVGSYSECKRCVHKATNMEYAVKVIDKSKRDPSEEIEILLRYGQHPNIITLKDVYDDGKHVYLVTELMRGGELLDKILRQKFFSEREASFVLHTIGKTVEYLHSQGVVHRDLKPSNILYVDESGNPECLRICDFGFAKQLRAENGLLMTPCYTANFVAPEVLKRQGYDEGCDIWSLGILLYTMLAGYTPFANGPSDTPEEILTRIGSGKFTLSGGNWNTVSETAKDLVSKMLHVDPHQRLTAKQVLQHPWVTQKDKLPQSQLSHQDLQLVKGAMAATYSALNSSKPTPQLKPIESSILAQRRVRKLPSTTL
Sequence of UniProt P41240 (whole entry, looked up): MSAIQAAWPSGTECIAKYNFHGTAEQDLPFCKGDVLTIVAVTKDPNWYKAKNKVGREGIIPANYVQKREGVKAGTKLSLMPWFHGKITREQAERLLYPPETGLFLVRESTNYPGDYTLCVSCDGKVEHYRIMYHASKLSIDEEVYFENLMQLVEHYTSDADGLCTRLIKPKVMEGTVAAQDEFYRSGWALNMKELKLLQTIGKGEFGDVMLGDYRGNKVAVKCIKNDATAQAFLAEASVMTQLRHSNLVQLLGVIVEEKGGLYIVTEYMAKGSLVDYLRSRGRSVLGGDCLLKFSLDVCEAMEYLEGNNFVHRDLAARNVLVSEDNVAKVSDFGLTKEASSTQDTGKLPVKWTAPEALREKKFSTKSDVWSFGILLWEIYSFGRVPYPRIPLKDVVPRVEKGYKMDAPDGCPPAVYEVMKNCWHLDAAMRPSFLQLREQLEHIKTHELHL
Sequence of UniProt Q5S007 (whole entry, looked up): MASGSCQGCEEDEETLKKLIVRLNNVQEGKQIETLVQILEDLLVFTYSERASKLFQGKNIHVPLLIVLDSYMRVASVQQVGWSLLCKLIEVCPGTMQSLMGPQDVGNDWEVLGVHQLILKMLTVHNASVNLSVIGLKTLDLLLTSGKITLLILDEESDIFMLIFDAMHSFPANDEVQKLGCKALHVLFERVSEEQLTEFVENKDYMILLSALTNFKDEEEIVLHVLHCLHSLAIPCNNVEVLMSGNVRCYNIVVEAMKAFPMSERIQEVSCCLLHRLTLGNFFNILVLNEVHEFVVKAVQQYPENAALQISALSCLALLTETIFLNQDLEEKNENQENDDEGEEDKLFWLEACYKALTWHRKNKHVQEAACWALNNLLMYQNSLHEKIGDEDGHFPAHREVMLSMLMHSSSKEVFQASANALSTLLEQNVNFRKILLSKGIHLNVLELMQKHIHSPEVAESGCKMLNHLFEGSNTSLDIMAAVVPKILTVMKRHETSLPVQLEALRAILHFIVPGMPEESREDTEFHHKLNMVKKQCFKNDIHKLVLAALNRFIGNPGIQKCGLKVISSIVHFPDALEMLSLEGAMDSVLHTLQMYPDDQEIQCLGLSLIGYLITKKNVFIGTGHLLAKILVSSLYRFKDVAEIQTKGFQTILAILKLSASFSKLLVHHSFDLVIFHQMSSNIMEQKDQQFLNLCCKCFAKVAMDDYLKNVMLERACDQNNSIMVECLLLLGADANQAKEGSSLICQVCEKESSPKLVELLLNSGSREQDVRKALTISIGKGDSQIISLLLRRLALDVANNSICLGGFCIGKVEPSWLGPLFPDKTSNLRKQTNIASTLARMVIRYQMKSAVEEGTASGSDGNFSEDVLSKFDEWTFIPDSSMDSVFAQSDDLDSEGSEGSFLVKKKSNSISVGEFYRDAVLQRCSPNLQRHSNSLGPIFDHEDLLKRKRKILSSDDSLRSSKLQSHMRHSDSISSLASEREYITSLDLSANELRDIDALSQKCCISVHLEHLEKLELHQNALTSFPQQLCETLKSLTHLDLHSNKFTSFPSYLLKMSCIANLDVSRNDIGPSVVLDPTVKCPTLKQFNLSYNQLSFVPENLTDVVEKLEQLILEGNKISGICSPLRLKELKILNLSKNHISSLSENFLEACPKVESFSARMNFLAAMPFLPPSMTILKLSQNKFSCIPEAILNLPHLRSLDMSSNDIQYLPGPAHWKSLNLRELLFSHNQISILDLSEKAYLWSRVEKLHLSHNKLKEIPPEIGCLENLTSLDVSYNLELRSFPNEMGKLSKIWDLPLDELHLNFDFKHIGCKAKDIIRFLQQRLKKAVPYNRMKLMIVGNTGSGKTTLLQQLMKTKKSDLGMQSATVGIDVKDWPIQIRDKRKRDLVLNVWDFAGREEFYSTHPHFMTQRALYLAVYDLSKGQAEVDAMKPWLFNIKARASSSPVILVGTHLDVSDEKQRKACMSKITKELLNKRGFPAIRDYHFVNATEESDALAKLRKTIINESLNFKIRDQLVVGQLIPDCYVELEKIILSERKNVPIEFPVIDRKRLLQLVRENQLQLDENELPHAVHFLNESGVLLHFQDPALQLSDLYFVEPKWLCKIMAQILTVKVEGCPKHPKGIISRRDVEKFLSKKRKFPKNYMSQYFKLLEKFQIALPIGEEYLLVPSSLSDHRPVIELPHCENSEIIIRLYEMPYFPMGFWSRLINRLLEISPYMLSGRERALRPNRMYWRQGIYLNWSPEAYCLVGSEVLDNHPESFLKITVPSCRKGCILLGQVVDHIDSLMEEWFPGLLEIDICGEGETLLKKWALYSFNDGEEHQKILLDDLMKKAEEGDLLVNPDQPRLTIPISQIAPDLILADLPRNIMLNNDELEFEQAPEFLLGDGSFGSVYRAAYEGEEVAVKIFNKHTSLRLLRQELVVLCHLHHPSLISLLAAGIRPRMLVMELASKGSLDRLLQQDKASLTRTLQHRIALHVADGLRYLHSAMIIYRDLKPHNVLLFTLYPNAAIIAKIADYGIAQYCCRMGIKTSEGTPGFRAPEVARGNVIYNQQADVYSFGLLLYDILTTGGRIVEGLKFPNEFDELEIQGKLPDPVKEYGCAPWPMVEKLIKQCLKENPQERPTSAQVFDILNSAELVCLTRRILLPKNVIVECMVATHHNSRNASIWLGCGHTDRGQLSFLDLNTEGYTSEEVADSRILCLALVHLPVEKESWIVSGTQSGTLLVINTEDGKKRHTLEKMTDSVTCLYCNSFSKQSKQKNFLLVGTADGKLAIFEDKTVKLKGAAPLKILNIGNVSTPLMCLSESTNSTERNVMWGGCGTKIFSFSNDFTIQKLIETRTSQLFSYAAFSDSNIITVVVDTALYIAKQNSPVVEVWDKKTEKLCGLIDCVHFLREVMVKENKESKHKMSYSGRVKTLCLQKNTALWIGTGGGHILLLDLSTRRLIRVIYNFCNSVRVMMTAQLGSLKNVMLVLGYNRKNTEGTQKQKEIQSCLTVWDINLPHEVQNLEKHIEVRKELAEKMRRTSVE
Sequence of UniProt Q9NY57 (whole entry, looked up): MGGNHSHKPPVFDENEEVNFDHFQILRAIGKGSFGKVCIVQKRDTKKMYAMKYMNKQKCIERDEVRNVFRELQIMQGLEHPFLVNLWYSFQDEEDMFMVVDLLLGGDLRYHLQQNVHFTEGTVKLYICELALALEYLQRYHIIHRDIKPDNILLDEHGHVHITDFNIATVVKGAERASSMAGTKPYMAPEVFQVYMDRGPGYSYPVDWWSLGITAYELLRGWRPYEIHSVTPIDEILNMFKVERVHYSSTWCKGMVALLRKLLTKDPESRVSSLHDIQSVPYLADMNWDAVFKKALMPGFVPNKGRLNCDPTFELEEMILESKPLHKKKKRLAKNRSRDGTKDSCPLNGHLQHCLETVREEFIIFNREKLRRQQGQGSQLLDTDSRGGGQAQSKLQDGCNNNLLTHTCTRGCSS

Series 1
Structure (SMILES): COc1ccc2c(O[C@@H]3C[C@H]4C(=O)N[C@]5(C(=O)O)CC5/C=C\CCCCC[C@H](NC(=O)OC5CCCC5)C(=O)N4C3)cc(-c3csc(NC(=O)C(C)C)n3)nc2c1C (stereo partly drawn)
Read-out: cell-free assay
Technique: competition with immobilised ligand
Concentration: 1 µM
Measurement: remaining binding
FGFR3 (Homo sapiens, UniProt P22607): 100%
CDKL3 (Homo sapiens, UniProt Q8IVW4): 92%
EPHA4 (Homo sapiens, UniProt P54764): 100%
LRRK2 (Homo sapiens, UniProt Q5S007): 92%
GRK1 (Homo sapiens, UniProt Q15835): 100%
FRK (Homo sapiens, UniProt P42685): 100%
CDKL2 (Homo sapiens, UniProt Q92772): 89%
STK32B (Homo sapiens, UniProt Q9NY57): 100%
PIK3CA (Homo sapiens, UniProt P42336, M1043I): 88%
NUAK1 (Homo sapiens, UniProt O60285): 92%

Series 2
Compound: C=CCc1ccc(O)c(-c2ccc(O)c(CC=C)c2)c1
Read-out: chloride current
Measurement: normalized current
ANO1 del476-501/E649A/R541A: Anoctamin-1 (ANO1, Homo sapiens, UniProt Q5XXA6, del476-501/E649A/R541A)
Sequence of UniProt Q5XXA6 (whole entry, unmodified, looked up): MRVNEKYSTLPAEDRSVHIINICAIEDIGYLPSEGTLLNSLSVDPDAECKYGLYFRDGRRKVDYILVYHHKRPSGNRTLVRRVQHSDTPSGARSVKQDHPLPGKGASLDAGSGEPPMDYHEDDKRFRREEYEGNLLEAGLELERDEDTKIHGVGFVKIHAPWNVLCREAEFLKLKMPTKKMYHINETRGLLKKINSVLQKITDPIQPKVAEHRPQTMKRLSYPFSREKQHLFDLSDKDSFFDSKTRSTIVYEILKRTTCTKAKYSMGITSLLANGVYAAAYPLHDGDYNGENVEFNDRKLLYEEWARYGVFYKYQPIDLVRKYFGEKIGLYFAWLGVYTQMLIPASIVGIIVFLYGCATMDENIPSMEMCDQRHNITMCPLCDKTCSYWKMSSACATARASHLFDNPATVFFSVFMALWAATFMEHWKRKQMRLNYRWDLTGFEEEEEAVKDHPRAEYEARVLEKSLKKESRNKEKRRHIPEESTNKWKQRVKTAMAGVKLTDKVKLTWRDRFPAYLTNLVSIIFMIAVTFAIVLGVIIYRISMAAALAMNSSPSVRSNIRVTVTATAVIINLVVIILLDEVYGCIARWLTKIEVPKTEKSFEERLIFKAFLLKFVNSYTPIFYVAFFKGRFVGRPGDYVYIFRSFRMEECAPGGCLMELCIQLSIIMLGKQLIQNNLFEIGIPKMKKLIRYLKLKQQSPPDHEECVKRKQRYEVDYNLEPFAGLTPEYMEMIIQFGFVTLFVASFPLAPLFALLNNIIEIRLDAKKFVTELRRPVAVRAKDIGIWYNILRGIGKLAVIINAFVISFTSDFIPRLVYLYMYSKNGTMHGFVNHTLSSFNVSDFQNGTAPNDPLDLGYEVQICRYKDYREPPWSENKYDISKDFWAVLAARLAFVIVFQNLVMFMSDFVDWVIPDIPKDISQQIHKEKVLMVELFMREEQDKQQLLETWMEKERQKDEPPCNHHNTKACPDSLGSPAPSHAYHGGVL
ANO1 del476-501: Anoctamin-1 (ANO1, Homo sapiens, UniProt Q5XXA6, del476-501)
ANO1 del476-501/F628A: Anoctamin-1 (ANO1, Homo sapiens, UniProt Q5XXA6, del476-501/F628A)
ANO1 del476-501/E649A/R541A; inside-out patch clamp; 10 µM, membrane voltage -40 mV: -0.173
ANO1 del476-501/E649A/R541A; inside-out patch clamp; 10 µM, membrane voltage 120 mV: 1
ANO1 del476-501; whole-cell voltage clamp; 30 µM, wild type, I-V at 0 mV, together with: 4 µM Ca2+: -0.00016
ANO1 del476-501; whole-cell voltage clamp; 1 µM, wild type, I-V at -80 mV, together with: 4 µM Ca2+: -0.673
ANO1 del476-501/F628A; whole-cell voltage clamp; 30 µM, I-V at 20 mV, together with: 4 µM Ca2+: 0.0738
ANO1 del476-501; whole-cell voltage clamp; 30 µM, wild type, concentration-response at 20 mV, together with: 4 µM Ca2+: 0.0131
ANO1 del476-501/F628A; whole-cell voltage clamp; 3 µM, concentration-response at 80 mV, together with: 4 µM Ca2+: 0.716
ANO1 del476-501; whole-cell voltage clamp; 1 µM, wild type, I-V at -60 mV, together with: 4 µM Ca2+: -0.523

Series 3
Structure (SMILES): Oc1cccc(-c2nc(N3CCOCC3)c3oc4ncccc4c3n2)c1
Read-out: enzyme activity
Action: inhibitor
Concentration: 0.5 µM
Relative to: control
Measurement: remaining activity
RPS6KA1 (Homo sapiens, UniProt Q15418): 79.5%
PRKCE (Homo sapiens, UniProt Q02156): 100%
BMX (Homo sapiens, UniProt P51813): 101%
CSK (Homo sapiens, UniProt P41240): 88.3%
PIM2 (Homo sapiens, UniProt Q9P1W9): 96.9%
Aurora kinase C (AURKC, Homo sapiens, UniProt Q9UQB9): 98.1%
EPHB2 (Homo sapiens, UniProt P29323): 88.6%
PRKCG (Homo sapiens, UniProt P05129): 102%
GRK2 (Homo sapiens, UniProt P25098): 107%
EPHA7 (Homo sapiens, UniProt Q15375): 93.9%

Series 4
Organism: Sarcocystis neurona
Read-out: parasite growth
Concentration: 10 µM
Time: 96 h
Measurement: inhibition
Nc1ccc(O)c(C(=O)O)c1: -15.8%
CC(=O)OCC(=O)[C@@]1(O)CC[C@H]2[C@@H]3C[C@H](C)C4=CC(=O)C=C[C@]4(C)[C@H]3[C@@H](O)C[C@@]21C: -8.7%
CNS(=O)(=O)Cc1ccc2[nH]cc(CCN(C)C)c2c1: -12.8%
COc1cc(C)nc(-n2nc(C)cc2OC)n1: 0.111%
CN(C)CCOC(c1ccc(Cl)cc1)c1ccccn1 (stereo not drawn): -8%
CC(=O)Nc1nnc(S(N)(=O)=O)s1: -1.9%
CN1[C@@H]2CC[C@H]1C[C@@H](OC(=O)c1c[nH]c3ccccc13)C2: -5.7%
CCOC(=O)O[C@]1(C(=O)OCCl)CC[C@H]2[C@@H]3CCC4=CC(=O)C=C[C@]4(C)[C@H]3[C@@H](O)C[C@@]21C: -11.1%
C[C@@H]1O[C@@H](OC[C@H]2O[C@@H](Oc3c(-c4ccc(O)c(O)c4)oc4cc(O)cc(O)c4c3=O)[C@H](O)[C@@H](O)[C@@H]2O)[C@H](O)[C@H](O)[C@H]1O: -9.8%
Cc1ccc(C)c(OCCCC(C)(C)C(=O)O)c1: -3.4%
CN(C)[C@@H]1C(O)=C(C(N)=O)C(=O)[C@@]2(O)C(O)=C3C(=O)c4c(O)cccc4[C@@](C)(O)[C@H]3C[C@@H]12: -0.646%
CCCNC(=O)NS(=O)(=O)c1ccc(Cl)cc1: -16.1%
OC(Cn1cncn1)(Cn1cncn1)c1ccc(F)cc1F: -5.2%
O=C(NCCO[N+](=O)[O-])c1cccnc1: -18.6%

Repeated from above (series 2):
ANO1 del476-501; whole-cell voltage clamp; 30 µM, wild type, I-V at 0 mV, together with: 4 µM Ca2+: -0.00016
ANO1 del476-501; whole-cell voltage clamp; 1 µM, wild type, I-V at -80 mV, together with: 4 µM Ca2+: -0.673
ANO1 del476-501/F628A; whole-cell voltage clamp; 30 µM, I-V at 20 mV, together with: 4 µM Ca2+: 0.0738
ANO1 del476-501; whole-cell voltage clamp; 30 µM, wild type, concentration-response at 20 mV, together with: 4 µM Ca2+: 0.0131
ANO1 del476-501/F628A; whole-cell voltage clamp; 3 µM, concentration-response at 80 mV, together with: 4 µM Ca2+: 0.716
ANO1 del476-501; whole-cell voltage clamp; 1 µM, wild type, I-V at -60 mV, together with: 4 µM Ca2+: -0.523
